Assay results gathered from unrelated publications.
Each numbered part is a random draw from the data of one study; scales do not carry over between parts. Positions count from the first letter of the parent shown.
Chain of UniProt Q9UM73 (whole entry, unmodified, looked up): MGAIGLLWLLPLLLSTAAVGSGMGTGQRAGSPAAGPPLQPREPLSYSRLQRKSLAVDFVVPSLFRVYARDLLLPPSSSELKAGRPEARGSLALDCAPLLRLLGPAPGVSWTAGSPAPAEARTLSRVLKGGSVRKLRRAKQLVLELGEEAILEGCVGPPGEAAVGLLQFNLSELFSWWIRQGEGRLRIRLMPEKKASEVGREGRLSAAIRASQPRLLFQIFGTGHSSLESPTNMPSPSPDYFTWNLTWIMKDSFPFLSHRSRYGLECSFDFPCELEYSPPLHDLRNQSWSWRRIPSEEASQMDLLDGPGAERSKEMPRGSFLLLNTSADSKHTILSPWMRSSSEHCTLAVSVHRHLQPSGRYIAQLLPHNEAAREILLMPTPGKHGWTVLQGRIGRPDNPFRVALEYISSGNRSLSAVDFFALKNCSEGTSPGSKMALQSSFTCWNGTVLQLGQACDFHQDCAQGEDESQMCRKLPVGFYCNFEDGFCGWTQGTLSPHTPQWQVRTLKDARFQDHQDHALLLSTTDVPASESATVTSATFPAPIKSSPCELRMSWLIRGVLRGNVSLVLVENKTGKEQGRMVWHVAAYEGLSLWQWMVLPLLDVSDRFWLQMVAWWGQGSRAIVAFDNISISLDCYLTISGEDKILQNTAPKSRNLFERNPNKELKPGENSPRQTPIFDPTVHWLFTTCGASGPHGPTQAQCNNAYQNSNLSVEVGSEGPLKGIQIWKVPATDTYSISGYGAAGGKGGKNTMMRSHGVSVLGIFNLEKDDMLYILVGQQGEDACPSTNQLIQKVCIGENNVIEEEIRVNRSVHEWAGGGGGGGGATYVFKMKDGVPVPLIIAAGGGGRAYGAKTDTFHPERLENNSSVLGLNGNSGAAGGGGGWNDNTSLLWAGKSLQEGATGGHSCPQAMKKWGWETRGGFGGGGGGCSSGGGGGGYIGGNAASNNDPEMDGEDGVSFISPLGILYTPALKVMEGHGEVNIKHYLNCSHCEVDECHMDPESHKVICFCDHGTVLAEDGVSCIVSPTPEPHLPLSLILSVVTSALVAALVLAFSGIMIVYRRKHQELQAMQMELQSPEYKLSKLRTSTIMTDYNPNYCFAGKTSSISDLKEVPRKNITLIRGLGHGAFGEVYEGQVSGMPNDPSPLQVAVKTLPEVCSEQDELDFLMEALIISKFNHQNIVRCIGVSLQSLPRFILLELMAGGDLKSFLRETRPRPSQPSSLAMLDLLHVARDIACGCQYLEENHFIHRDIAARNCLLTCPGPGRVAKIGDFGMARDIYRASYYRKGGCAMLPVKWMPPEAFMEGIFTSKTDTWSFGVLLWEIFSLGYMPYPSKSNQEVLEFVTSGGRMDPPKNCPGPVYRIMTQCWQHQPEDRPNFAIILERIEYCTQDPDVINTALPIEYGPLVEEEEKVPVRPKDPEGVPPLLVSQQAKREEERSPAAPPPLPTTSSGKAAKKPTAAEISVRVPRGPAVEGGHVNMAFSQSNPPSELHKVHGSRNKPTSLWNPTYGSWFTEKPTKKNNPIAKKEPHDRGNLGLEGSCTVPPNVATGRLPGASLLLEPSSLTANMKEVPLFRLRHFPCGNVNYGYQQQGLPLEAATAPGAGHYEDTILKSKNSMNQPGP
Chain of UniProt Q32MK0 (whole entry, looked up): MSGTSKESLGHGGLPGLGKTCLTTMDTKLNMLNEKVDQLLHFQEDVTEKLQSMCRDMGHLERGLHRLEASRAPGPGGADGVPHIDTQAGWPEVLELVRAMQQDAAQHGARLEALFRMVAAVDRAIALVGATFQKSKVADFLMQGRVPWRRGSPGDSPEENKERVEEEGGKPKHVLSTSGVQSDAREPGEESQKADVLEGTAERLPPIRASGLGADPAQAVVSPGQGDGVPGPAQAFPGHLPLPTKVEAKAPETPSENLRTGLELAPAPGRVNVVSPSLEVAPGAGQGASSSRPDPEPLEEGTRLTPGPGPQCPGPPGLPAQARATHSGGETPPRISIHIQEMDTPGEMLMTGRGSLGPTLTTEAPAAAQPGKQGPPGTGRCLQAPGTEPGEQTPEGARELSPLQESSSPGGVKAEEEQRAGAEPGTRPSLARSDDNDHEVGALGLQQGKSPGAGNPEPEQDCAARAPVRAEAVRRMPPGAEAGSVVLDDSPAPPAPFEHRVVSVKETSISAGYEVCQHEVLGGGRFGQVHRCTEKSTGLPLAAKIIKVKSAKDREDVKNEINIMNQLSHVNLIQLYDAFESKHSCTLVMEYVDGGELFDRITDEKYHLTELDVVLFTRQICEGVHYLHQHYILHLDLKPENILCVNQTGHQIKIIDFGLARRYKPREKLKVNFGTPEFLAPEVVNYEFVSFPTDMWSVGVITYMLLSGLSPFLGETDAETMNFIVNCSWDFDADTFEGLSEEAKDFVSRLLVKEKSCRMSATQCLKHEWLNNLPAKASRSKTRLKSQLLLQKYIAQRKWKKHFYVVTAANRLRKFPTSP
Chain of UniProt P36897 (whole entry, looked up): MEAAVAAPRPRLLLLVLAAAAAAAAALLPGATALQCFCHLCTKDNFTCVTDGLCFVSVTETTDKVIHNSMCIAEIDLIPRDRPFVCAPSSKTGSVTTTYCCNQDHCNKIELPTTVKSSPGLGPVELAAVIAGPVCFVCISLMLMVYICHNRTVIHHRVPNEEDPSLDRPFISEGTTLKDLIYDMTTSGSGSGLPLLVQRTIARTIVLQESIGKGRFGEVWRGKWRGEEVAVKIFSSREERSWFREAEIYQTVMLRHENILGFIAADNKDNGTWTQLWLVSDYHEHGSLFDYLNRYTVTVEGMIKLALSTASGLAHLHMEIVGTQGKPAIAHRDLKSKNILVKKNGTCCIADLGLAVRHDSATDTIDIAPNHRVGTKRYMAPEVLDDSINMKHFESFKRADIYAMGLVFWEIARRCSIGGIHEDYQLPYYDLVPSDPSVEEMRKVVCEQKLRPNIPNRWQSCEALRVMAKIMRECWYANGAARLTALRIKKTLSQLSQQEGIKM
Chain of UniProt O75747 (whole entry, looked up): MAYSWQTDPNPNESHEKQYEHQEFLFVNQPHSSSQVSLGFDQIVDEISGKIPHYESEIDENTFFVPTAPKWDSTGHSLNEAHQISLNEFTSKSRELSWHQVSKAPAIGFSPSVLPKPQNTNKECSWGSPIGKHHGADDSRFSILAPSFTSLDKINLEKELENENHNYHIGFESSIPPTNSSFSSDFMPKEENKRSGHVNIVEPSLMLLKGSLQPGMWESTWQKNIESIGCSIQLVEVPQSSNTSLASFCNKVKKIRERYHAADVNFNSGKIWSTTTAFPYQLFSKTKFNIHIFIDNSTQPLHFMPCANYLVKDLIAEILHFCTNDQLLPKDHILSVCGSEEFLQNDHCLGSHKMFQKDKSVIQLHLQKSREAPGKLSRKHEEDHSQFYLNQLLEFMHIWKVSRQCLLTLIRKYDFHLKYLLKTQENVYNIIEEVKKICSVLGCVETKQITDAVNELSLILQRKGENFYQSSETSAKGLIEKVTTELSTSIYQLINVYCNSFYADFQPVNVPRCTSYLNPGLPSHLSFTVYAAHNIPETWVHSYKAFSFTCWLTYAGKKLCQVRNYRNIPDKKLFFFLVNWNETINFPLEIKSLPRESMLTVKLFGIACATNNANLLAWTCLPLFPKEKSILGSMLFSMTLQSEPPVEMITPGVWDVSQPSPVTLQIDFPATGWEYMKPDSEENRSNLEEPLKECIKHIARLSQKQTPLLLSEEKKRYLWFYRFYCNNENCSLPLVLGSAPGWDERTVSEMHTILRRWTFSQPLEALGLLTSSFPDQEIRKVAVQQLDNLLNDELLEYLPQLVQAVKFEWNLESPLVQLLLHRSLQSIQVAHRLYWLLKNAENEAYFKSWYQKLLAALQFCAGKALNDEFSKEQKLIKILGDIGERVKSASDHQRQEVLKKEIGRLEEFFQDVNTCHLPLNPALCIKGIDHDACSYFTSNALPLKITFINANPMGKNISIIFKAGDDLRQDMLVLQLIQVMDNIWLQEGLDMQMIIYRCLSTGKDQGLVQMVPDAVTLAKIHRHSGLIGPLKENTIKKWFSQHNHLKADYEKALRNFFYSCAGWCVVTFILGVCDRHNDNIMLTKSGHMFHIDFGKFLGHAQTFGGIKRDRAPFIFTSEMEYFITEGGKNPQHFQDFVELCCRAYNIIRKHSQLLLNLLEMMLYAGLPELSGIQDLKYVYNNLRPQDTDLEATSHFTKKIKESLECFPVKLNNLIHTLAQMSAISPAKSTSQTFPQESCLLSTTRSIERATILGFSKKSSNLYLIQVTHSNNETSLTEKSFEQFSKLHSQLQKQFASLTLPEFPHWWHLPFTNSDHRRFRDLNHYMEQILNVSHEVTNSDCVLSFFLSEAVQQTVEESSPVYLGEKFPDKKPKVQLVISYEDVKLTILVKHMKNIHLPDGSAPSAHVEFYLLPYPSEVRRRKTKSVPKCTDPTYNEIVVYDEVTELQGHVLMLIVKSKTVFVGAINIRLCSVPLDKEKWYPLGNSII
Chain of UniProt Q06187 (whole entry, looked up): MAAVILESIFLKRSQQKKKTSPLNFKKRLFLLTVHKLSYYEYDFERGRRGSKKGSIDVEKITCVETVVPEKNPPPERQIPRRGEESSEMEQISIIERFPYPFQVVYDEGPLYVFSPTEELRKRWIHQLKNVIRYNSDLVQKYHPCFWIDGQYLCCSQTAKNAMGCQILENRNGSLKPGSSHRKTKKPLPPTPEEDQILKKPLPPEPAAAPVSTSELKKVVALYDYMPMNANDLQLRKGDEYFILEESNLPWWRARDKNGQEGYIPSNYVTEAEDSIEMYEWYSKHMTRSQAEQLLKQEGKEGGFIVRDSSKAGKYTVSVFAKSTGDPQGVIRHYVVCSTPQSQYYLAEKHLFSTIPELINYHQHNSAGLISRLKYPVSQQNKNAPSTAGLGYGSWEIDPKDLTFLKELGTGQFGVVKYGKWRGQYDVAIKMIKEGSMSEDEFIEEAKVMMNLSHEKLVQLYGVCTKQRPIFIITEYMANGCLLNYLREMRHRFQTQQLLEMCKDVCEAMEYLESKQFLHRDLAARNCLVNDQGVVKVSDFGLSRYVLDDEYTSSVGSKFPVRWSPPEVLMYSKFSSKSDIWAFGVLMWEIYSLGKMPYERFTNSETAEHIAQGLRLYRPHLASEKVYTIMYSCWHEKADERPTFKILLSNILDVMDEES

Study 1
Target: CCND3, cyclin fold, Cln2 fusion (human)
Method: yeast growth competition, sequencing
Medium: yeast
Notes: weak parent motif
Baseline: not given
Reading: higher = stronger binding
Starting sequence: ORC1 docking peptide (human); PRARKRLELGNLG
Variant | normalised enrichment score
L9T | 0.124
K5T | 0.06
N11E | 0.067
K5I | 0.164
R4M | 0.144
R2D | 0.133
G13Q | 0.0263
R6S | 0.122

Study 2
SMILES: Clc1ccc(Nc2nnc(Cc3ccncc3)c3ccccc23)cc1
Observed: enzyme activity
Action: inhibitor
Concentration: 0.5 µM
Baseline: control
target | remaining activity
BTK (Homo sapiens, UniProt Q06187) | 95.4%
PRKG1 (Homo sapiens, UniProt Q13976) | 97.2%
AKT3 (Homo sapiens, UniProt Q9Y243) | 89.9%
WNK2 (Homo sapiens, UniProt Q9Y3S1) | 96.3%

Study 3
Target: Max-binding protein MNT, bHLH-zipper, MAX partner unstated (MNT, Homo sapiens, UniProt Q99583, residues 220-300)
Method: protein-binding microarray
Form: double-stranded DNA, one strand shown
Medium: in vitro
Concentration: not given
Notes: k-mer, scored over probes, only values ≥0.25
Reading: higher = stronger binding
Residues (chain): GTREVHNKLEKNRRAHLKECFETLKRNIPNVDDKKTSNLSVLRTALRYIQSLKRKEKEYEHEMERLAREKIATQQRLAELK
Strand | E-score
CACTCCCC | 0.313
CTGTGCGC | 0.317
CACACGCG | 0.449
TGCCCACA | 0.253
AACCCACC | 0.271
GGAGTGCA | 0.269
CATGACGC | 0.256
GATCCCCA | 0.26

Study 4
SMILES: CC(C)(O)c1cncc(-c2nc3ccc(F)cc3n2C2CC2)c1
Observed: cell-free assay
Method: competition with immobilised ligand
Concentration: 1 µM
target | remaining binding [%]
MAP3K12 (Homo sapiens, UniProt Q12852) | 100
MAK (Homo sapiens, UniProt P20794) | 100
HIPK4 (Homo sapiens, UniProt Q8NE63) | 100
DCLK1 (Homo sapiens, UniProt O15075) | 88
MAPK1 (Homo sapiens, UniProt P28482) | 100
PIP5K1C (Homo sapiens, UniProt O60331) | 100
PIK3C2G (Homo sapiens, UniProt O75747) | 100
ALK (Homo sapiens, UniProt Q9UM73, L1196M) | 100
ULK1 (Homo sapiens, UniProt O75385) | 100
MUSK (Homo sapiens, UniProt O15146) | 100
Ribosomal protein S6 kinase alpha-6, N-terminal kinase domain (RPS6KA6, Homo sapiens, UniProt Q9UK32) | 100
FLT3 (Homo sapiens, UniProt P36888, F691L/ITD) | 100
TGFBR1 (Homo sapiens, UniProt P36897) | 90
MYLK3 (Homo sapiens, UniProt Q32MK0) | 87
RIOK1 (Homo sapiens, UniProt Q9BRS2) | 100

For quick reference, copied from above (study 3):
Strand | E-score
CACTCCCC | 0.313
CTGTGCGC | 0.317
TGCCCACA | 0.253
GGAGTGCA | 0.269
CATGACGC | 0.256
